# Results from different studies.
# Protocols differ between the studies behind these lines. ± marks the error that the study gave.
# Organism: Leishmania donovani
SMILES,test,test system,conditions,IC50
C#CCn1cc(/C=N/N2C(=O)CSC2=S)c2cc([N+](=O)[O-])ccc21,"parasite growth, resazurin",THP-1,"72 h, intracellular, amastigote",> 10 µM
C[C@@H]1N[C@H](CCCCCCCCCCc2cc(CCCCCCCCCC[C@H]3CC[C@@H](O)[C@@H](C)N3)c[n+]3c2CCC3)CC[C@H]1O,"parasite growth, resazurin",,"72 h, promastigote",1.22 µg/mL
Cc1nn(Cc2ccc(O)c(C=O)c2)c(=O)[nH]c1=O,"parasite growth, SYBR Green",,amastigote,29 µM
O=C1NC(=S)S/C1=C\c1cn(Cc2ccc(F)cc2)c2ccc([N+](=O)[O-])cc12,"parasite growth, resazurin",THP-1,"24 h, intracellular, amastigote",> 10 µM
O=Cc1cc(Cn2cc(F)c(=O)[nH]c2=O)ccc1O,"parasite growth, SYBR Green",,amastigote,> 100 µM
COc1ccc2c(c1)c1cc(C=O)c(OC)cc1n2C,viability,axenic amastigotes,72 h,> 40 µg/mL
O=Cc1cc(Cn2ccc(=O)[nH]c2=O)ccc1O,"parasite growth, SYBR Green",,amastigote,> 100 µM
C#CCn1cc(C=O)c2cc([N+](=O)[O-])ccc21,"parasite growth, resazurin",THP-1,"72 h, intracellular, amastigote",> 10 µM
N=C(N)c1ccc(OCCCCCOc2ccc(C(=N)N)cc2)cc1,viability,promastigotes,"72 h, 26 °C",1.2 µg/mL
O=C1NC(=S)S/C1=C\c1cn(Cc2ccccc2)c2ccc([N+](=O)[O-])cc12,"parasite growth, resazurin",THP-1,"72 h, intracellular, amastigote",3.01 µM
C[C@@H]1[C@H](O)[C@@H](C)/C=C/C=C/C=C/C=C/C=C/C=C/C=C/[C@H](O[C@@H]2O[C@H](C)[C@@H](O)[C@H](N)[C@@H]2O)C[C@@H]2O[C@](O)(C[C@@H](O)C[C@@H](O)[C@H](O)CC[C@@H](O)C[C@@H](O)CC(=O)O[C@H]1C)C[C@H](O)[C@H]2C(=O)O,"parasite growth, resazurin",,"72 h, amastigote",0.32 µg/mL
Cc1cn(Cc2ccc(O)c(C=O)c2)c(=O)[nH]c1=O,"parasite growth, SYBR Green",RAW264.7,"intracellular, amastigote",> 100 µM
CCCCCCCCCCCCCCCCOP(=O)([O-])OCC[N+](C)(C)C,parasite growth,mouse Macrophage,"intracellular, amastigote",4.91 µM
O=C1CSC(=S)N1/N=C/c1cn(Cc2cccc(Cl)c2)c2ccc([N+](=O)[O-])cc12,"parasite growth, resazurin",THP-1,"72 h, intracellular, amastigote",> 10 µM
C[C@@H]1[C@H](O)[C@@H](C)/C=C/C=C/C=C/C=C/C=C/C=C/C=C/[C@H](O[C@@H]2O[C@H](C)[C@@H](O)[C@H](N)[C@@H]2O)C[C@@H]2O[C@](O)(C[C@@H](O)C[C@@H](O)[C@H](O)CC[C@@H](O)C[C@@H](O)CC(=O)O[C@H]1C)C[C@H](O)[C@H]2C(=O)O,parasite growth,THP-1,"intracellular, amastigote",0.272 µM
O=C1CSC(=S)N1/N=C/c1cn(Cc2ccccc2)c2ccc([N+](=O)[O-])cc12,"parasite growth, resazurin",THP-1,"24 h, intracellular, amastigote",> 10 µM
COc1c(CC(C)O)c2c3c(CC(C)O)c(OC)c(=O)c4c(O)cc5c(c6c(cc(O)c(c1=O)c62)OCO5)c43 (stereo not drawn),growth,MHOM/SD/00/1S axenic amastigotes,in dark,0.46 ± 0.05 µM
N=C(N)c1ccc(OCCCCCOc2ccc(C(=N)N)cc2)cc1,Alamar Blue,axenic amastigotes,"72 h, 37 °C",2.1 µg/mL
O=C1NC(=S)S/C1=C\c1c[nH]c2ccc([N+](=O)[O-])cc12,"parasite growth, resazurin",THP-1,"72 h, intracellular, amastigote",> 10 µM
C[C@@H]1[C@H](O)[C@@H](C)/C=C/C=C/C=C/C=C/C=C/C=C/C=C/[C@H](O[C@@H]2O[C@H](C)[C@@H](O)[C@H](N)[C@@H]2O)C[C@@H]2O[C@](O)(C[C@@H](O)C[C@@H](O)[C@H](O)CC[C@@H](O)C[C@@H](O)CC(=O)O[C@H]1C)C[C@H](O)[C@H]2C(=O)O,,Bob promastigotes,120 h,0.03 µM
C[C@@H]1[C@H](O)[C@@H](C)/C=C/C=C/C=C/C=C/C=C/C=C/C=C/[C@H](O[C@@H]2O[C@H](C)[C@@H](O)[C@H](N)[C@@H]2O)C[C@@H]2O[C@](O)(C[C@@H](O)C[C@@H](O)[C@H](O)CC[C@@H](O)C[C@@H](O)CC(=O)O[C@H]1C)C[C@H](O)[C@H]2C(=O)O,,"macrophages, intracellular amastigotes",72 h,3.07 µM

# A few entries again:
SMILES,test,test system,conditions,IC50
C[C@@H]1[C@H](O)[C@@H](C)/C=C/C=C/C=C/C=C/C=C/C=C/C=C/[C@H](O[C@@H]2O[C@H](C)[C@@H](O)[C@H](N)[C@@H]2O)C[C@@H]2O[C@](O)(C[C@@H](O)C[C@@H](O)[C@H](O)CC[C@@H](O)C[C@@H](O)CC(=O)O[C@H]1C)C[C@H](O)[C@H]2C(=O)O,parasite growth,THP-1,"intracellular, amastigote",0.272 µM
COc1ccc2c(c1)c1cc(C=O)c(OC)cc1n2C,viability,axenic amastigotes,72 h,> 40 µg/mL
